Experimental data gathered from unrelated publications.
Parts stem from different laboratories: compare values within a part only. Values joined by “and” are separate records of one study, mostly repeats; a detail may differ.
UniProt P49760, sequence (whole entry, looked up): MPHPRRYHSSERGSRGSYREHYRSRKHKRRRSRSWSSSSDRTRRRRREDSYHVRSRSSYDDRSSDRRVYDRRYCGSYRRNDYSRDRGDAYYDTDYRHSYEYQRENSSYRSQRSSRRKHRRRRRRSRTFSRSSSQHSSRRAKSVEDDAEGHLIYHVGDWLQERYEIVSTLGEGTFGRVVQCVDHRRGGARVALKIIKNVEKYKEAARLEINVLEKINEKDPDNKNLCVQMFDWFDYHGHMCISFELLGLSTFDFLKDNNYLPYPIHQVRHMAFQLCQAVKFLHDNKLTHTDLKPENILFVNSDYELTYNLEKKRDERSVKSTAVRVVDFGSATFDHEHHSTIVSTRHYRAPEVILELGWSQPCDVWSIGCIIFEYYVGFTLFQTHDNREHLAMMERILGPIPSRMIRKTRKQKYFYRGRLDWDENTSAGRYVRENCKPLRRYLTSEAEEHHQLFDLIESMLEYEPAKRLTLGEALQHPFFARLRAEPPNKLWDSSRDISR
UniProt P17948, sequence (whole entry, looked up): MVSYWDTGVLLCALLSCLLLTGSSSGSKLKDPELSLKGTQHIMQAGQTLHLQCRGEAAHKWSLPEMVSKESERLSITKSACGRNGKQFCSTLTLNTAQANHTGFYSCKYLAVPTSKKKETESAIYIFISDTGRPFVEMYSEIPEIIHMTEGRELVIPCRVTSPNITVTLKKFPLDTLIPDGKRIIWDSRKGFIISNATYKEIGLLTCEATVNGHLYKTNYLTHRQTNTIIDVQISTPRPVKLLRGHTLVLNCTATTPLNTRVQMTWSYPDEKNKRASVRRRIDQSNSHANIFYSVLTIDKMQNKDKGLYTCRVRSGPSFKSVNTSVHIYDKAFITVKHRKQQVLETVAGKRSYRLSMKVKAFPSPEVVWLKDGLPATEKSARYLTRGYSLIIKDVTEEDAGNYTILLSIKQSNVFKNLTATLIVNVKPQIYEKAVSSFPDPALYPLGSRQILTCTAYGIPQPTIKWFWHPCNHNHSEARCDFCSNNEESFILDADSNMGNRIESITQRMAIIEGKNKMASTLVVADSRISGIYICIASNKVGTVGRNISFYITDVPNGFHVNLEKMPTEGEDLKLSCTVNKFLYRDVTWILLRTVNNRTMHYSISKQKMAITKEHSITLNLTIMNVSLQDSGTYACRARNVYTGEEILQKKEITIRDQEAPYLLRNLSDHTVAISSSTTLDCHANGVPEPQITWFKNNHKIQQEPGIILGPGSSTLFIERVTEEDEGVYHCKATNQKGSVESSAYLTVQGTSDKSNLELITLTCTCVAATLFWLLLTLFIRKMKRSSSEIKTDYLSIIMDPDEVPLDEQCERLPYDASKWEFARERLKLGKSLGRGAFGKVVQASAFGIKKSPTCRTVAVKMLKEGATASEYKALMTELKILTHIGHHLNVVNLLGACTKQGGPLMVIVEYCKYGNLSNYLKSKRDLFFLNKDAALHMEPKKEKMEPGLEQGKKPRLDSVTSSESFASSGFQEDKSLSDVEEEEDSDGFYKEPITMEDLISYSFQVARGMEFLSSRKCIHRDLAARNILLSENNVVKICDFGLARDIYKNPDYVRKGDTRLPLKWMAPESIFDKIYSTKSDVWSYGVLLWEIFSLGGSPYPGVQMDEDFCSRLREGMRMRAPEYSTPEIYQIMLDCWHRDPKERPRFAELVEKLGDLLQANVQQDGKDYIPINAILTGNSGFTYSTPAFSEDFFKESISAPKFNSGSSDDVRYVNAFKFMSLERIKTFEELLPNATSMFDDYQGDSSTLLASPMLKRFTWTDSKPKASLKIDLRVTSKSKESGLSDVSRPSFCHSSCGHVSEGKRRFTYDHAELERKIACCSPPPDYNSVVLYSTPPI
UniProt Q96L34, sequence (whole entry, looked up): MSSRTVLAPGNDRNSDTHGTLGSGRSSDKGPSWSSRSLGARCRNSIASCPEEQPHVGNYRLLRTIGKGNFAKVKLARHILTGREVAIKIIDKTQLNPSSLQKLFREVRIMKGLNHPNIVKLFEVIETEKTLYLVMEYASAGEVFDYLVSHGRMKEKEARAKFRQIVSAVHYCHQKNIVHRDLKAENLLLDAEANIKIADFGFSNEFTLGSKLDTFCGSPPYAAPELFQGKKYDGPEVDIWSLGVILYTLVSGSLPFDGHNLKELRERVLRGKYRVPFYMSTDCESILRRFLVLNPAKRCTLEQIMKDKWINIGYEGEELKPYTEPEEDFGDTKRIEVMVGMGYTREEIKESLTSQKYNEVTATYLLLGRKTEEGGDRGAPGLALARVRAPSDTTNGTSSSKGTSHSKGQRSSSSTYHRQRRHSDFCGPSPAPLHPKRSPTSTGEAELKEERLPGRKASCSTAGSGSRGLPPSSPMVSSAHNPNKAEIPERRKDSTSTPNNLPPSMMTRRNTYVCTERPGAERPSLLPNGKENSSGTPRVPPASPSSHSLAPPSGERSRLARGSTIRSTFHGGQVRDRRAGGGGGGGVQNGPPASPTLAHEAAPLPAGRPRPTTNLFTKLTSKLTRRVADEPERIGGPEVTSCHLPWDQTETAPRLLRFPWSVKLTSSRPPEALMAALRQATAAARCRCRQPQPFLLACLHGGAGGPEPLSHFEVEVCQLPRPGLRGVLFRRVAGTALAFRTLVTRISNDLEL
UniProt Q04759, sequence (whole entry, looked up): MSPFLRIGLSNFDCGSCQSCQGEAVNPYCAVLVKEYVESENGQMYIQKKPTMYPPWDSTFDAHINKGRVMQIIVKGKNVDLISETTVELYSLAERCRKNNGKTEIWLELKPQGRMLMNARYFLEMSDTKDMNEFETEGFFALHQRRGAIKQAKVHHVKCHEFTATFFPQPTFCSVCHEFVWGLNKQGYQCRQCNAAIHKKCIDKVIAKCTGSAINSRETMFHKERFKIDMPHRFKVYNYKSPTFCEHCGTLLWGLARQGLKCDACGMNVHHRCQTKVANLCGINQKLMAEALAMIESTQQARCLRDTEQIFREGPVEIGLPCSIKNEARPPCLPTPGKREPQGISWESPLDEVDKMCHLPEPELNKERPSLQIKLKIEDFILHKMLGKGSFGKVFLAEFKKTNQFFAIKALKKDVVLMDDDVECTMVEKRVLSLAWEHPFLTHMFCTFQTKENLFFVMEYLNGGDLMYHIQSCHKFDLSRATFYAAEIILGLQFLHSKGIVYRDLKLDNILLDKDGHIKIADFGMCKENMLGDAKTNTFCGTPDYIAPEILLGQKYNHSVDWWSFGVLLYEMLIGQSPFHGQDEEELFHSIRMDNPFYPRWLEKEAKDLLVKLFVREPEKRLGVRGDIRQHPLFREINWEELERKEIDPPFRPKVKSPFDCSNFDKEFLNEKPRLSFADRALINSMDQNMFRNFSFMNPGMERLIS
UniProt Q14680, sequence (whole entry, looked up): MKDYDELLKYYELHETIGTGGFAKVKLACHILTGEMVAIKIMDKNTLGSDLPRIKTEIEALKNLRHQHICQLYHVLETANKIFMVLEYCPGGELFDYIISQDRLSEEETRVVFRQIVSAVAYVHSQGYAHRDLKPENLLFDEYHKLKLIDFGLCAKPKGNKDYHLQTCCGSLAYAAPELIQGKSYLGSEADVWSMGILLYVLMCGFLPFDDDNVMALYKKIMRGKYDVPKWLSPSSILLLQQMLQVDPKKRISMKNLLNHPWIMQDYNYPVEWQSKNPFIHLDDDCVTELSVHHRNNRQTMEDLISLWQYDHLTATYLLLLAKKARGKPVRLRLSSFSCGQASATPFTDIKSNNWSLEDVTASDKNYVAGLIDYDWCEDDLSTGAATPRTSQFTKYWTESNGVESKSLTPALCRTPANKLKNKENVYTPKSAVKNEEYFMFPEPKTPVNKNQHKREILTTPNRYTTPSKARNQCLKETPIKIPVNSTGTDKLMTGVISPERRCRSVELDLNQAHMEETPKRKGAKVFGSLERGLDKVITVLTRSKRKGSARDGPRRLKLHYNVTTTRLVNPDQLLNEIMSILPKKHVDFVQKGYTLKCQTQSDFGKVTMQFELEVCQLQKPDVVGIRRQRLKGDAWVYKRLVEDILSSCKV
UniProt O96013, sequence (whole entry, looked up): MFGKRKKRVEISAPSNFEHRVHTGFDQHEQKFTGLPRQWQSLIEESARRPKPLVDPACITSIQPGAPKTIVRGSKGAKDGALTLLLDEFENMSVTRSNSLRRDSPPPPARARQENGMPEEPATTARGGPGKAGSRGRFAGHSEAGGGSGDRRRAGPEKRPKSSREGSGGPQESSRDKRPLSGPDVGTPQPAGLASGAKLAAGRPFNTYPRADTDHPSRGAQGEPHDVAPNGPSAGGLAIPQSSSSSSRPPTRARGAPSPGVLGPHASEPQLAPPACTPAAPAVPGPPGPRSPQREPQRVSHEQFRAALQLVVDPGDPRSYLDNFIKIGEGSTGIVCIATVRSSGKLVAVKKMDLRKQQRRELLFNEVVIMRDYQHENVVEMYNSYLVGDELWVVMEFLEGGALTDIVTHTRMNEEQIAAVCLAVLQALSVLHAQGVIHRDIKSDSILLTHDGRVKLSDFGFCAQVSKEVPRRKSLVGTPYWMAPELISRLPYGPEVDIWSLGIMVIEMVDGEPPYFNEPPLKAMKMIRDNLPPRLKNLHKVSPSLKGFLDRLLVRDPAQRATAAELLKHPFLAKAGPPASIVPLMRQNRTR
UniProt O14843, sequence (whole entry, looked up): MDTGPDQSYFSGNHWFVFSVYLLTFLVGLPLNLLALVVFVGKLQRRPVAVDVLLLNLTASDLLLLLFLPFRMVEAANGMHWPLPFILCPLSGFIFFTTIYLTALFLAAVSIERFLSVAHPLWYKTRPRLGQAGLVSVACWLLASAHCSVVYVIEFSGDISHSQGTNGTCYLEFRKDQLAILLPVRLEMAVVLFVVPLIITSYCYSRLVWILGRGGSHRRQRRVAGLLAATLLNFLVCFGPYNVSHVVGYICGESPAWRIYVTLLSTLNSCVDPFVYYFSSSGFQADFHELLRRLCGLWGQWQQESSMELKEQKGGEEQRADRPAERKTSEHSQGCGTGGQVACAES

Set 1
SMILES: CNC(=O)Nc1ccc2c(c1)CC[C@@]21OC(=O)N(CC(=O)N(Cc2ccc(F)cc2)[C@@H](C)C(F)(F)F)C1=O
Read-out: cell-free assay
Method: competition with immobilised ligand
Concentration: 1 µM
Quantity: remaining binding
STK10 (Homo sapiens, UniProt O94804): 100%
LIM domain kinase 2 (LIMK2, Homo sapiens, UniProt P53671): 88%
SBK1 (Homo sapiens, UniProt Q52WX2): 79%
STK36 (Homo sapiens, UniProt Q9NRP7): 77%
Ribosomal protein S6 kinase alpha-2, N-terminal kinase domain (RPS6KA2, Homo sapiens, UniProt Q15349): 76%
EPHA7 (Homo sapiens, UniProt Q15375): 88%
CDK17 (Homo sapiens, UniProt Q00537): 96%
MARK4 (Homo sapiens, UniProt Q96L34): 84%
BMPR2 (Homo sapiens, UniProt Q13873): 100%

Set 2
Species: human
Sample: microsomes or S9
Concentration: 2 µM
Time: 0.5 h
Quantity: remaining compound
Oc1ccccc1Oc1ncc(Br)c(Cl)n1: > 99.9%
COC[C@]1(C)Oc2ccc(N)cc2[C@H](N(Cc2ncc[nH]2)c2ccc(Cl)cc2)[C@H]1O: 17.9%
COc1ccccc1CCN[C@H]1CS(=O)(=O)C[C@@H]1S(=O)(=O)c1ccc(Cl)cc1: 1.34%
CCOC(=O)C1(C(=O)OCC)Cc2ccccc2C(C)(c2ccccc2)C1 (centres unmarked): 12.9%
COc1cc(=O)[nH]cc1C(=O)NC1CCCN(c2ccccc2)C1=O (centres unmarked): 85.7%
CCOC(=O)N1CCN(Cc2nc(N)nc(Nc3ccc(F)cc3)n2)CC1: > 100%
CCC(c1ccc(F)cc1)S(=O)(=O)c1ncc(CO)n1C (centres unmarked): > 100%
O=C(NCC1COc2ccccc2O1)c1c(-c2cncnc2)cc(=O)n2c1CCCC2 (centres unmarked): 73%
Cc1nc2ncnn2c(C)c1CCC(=O)OC1(C)CCC(C)(C)CC1: 95.4%

Set 3
Compound: CCOc1cc2ncnc(Nc3cccc(Br)c3)c2cc1OCC
Read-out: enzyme activity
Mode: inhibitor
Concentration: 0.5 µM
Baseline: control
Quantity: remaining activity
PAK6 (Homo sapiens, UniProt Q9NQU5): 119%
EPHA2 (Homo sapiens, UniProt P29317): 80.3%
TYRO3 (Homo sapiens, UniProt Q06418): 92.2%
PAK5 (Homo sapiens, UniProt Q9P286): 99.1%
PAK4 (Homo sapiens, UniProt O96013): 115%
MUSK (Homo sapiens, UniProt O15146): 92.6%
Cyclin-dependent kinase 5, with p35 (CDK5, Homo sapiens, UniProt Q00535): 99.2%
CSNK1D (Homo sapiens, UniProt P48730): 103%
EPHB3 (Homo sapiens, UniProt P54753): 99.7%
CLK1 (Homo sapiens, UniProt P49759): 97.2%
YES1 (Homo sapiens, UniProt P07947): 43.2%
MELK (Homo sapiens, UniProt Q14680): 88.1%
CLK2 (Homo sapiens, UniProt P49760): 92.6%
PRKCQ (Homo sapiens, UniProt Q04759): 89.2%
TEC (Homo sapiens, UniProt P42680): 120%
JAK1 (Homo sapiens, UniProt P23458): 102%
BRSK2 (Homo sapiens, UniProt Q8IWQ3): 94%
SIK2 (Homo sapiens, UniProt Q9H0K1): 109%
PIM1 (Homo sapiens, UniProt P11309): 92.1%
RPS6KB2 (Homo sapiens, UniProt Q9UBS0): 102%
ERBB2 (Homo sapiens, UniProt P04626): 13.8%
CSNK1E (Homo sapiens, UniProt P49674): 93.8%
IGF1R (Homo sapiens, UniProt P08069): 101%
CAMKK1 (Homo sapiens, UniProt Q8N5S9): 88.2%
FLT1 (Homo sapiens, UniProt P17948): 85%

Set 4
Structure (SMILES): O=C(COc1ccccc1P(=O)(O)O)NCC(F)(F)c1cccc(F)c1
Cell line: human islets
Method: qPCR
Concentration: concentration not given
Setting: unit not given
Baseline: low glucose control
Quantity: mRNA level
measured: RELA; with: high glucose (20 mM): 0.896 and 1.12 and 1.15 and 0.934
measured: NFATC1; with: glucolipotoxic conditions: 0.638 and 1.21 and 1.07 and 0.639
measured: PIN1; with: glucolipotoxic conditions: 1.26 and 1.05 and 0.89
measured: BRAF; with: high glucose (20 mM): 0.779 and 2.09 and 0.994 and 0.922

Set 5
SMILES: CCN(c1nc(N)c(C(=O)N=C(N)N)nc1Cl)C(C)C
Read-out: β-arrestin recruitment
Mode: agonist
Method: PRESTO-Tango
Concentration: 10 µM
Baseline: untreated
Quantity: fold over basal
CMKLR1 (Homo sapiens, UniProt Q99788): 0.87
FFAR3 (Homo sapiens, UniProt O14843): 0.88 fold
P2Y purinoceptor 14 (P2RY14, Homo sapiens, UniProt Q15391): 1.01
VIPR2 (Homo sapiens, UniProt P41587): 0.33 fold
PROKR2 (Homo sapiens, UniProt Q8NFJ6): 0.8
PTH2R (Homo sapiens, UniProt P49190): 0.66

For quick reference, copied from above (set 3):
MUSK (Homo sapiens, UniProt O15146): 92.6%
Cyclin-dependent kinase 5, with p35 (CDK5, Homo sapiens, UniProt Q00535): 99.2%
CSNK1D (Homo sapiens, UniProt P48730): 103%
EPHB3 (Homo sapiens, UniProt P54753): 99.7%
